Measurements of several laboratories.
Values joined by “and” are separate records of one study, mostly repeats; a detail may differ. ± gives the spread as reported.

Compound = Cn1cc(-c2cn3nccc3c(-c3cnn([C@]4(CC#N)C[C@@H](C#N)C4)c3)n2)cn1; test system = healthy humans fasted, plasma; setting = 400 mg single dose, geometric mean; AUC(0-t) = 2770 ng·h/mL
Compound = CO[C@H]1C[C@@H]2CC[C@@H](C)[C@@](O)(O2)C(=O)C(=O)N2CCCC[C@H]2C(=O)O[C@H]([C@H](C)C[C@@H]2CC[C@@H](OC(=O)NCCOCCOCCOCCOCCOCCOCCOCCOCCC(=O)N3CCc4cc(Cn5nc(-c6ccc7oc(N)nc7c6)c6c(N)ncnc65)ccc4C3)[C@H](OC)C2)C[C@@H](O)[C@H](C)/C=C(\C)[C@@H](O)[C@@H](OC)C(=O)[C@H](C)C[C@H](C)/C=C/C=C/C=C/1C; test system = human, plasma; setting = intravenous, 3 mg, cycle 1 day 1, arithmetic mean; AUC(0-t) = 78 ng·h/mL
Compound = CC(C)n1c(Nc2cccnc2)nc2cnc(Nc3ccc(N4CCN(C)CC4)cc3)nc21; test system = human, male, plasma; setting = oral, 150 mg, day 15, added: rifampin 600 mg daily; AUC(0-t) = 972 ng·h/mL
Compound = CC(C)=CCC/C(C)=C/CC/C(C)=C/CC[C@@](C)(O)CCC1=C(C)C(=O)C(C)=C(C)C1=O; test system = healthy human, plasma; setting = oral, 400 mg, added: itraconazole 200 mg; AUC(0-t) = 11300 ng·h/mL
Compound = O=C(O)CCC(=O)O.[2H]C([2H])([2H])Oc1cc(C)c2[nH]ccc2c1CN1CC[C@@H](C2CC2)C[C@H]1c1ccc(C(=O)O)cc1; test system = healthy humans, fed; setting = oral, 200 mg, single dose, high-fat meal; AUC(0-t) = 121000 ng·h/mL
Compound = C=CCn1c(=O)c2cnc(Nc3ccc(N4CCN(C)CC4)cc3)nc2n1-c1cccc(C(C)(C)O)n1; test system = human, plasma; setting = oral, 125 mg twice daily, day -5 lead-in, geometric mean, monotherapy; AUC(0-t) = 4.98 µM·h
Compound = CCN1CCN(Cc2ccc(Nc3ncc(F)c(-c4cc(F)c5nc6n(c5c4)[C@H](C)CCC6)n3)nc2)CC1; test system = human, plasma; setting = 300 mg single dose, mean; AUC(0-t) = 9560 ng·h/mL
Compound = CN[C@@H](C)C(=O)N[C@H]1CN(S(=O)(=O)c2cccc(S(=O)(=O)N3CC[C@H]4CC[C@@H](C(=O)NC(c5ccccc5)c5ccccc5)N4C(=O)[C@@H](NC(=O)[C@H](C)NC)C3)c2)CC[C@H]2CC[C@@H](C(=O)NC(c3ccccc3)c3ccccc3)N2C1=O; assay = LC-MS/MS, noncompartmental; test system = human, plasma; setting = 30 mg, cycle 1 day 1; AUC(0-t) = 952 ± 500 ng·h/mL
Compound = C=CC(=O)N(C)CCOc1c(N)ncnc1-c1cc(F)cc(NC(=O)c2ccc(C3CC3)cc2F)c1C; test system = human, whole blood; setting = oral, 100 mg, single ascending dose; AUC(0-t) = 269 ng·h/mL
Compound = COc1ccc([C@@H](O)c2cc(-c3ncnc4cc(N5CCOCC5)ccc34)c(F)cc2Cl)nn1; test system = healthy human volunteers, plasma; setting = oral, 100 mg single dose, oral suspension, fasted, geometric mean; AUC(0-t) = 1260 ng·h/mL
Compound = CCO; test system = human, breath; setting = 0.5 g/kg, added: 10 mg co-dosed drug; AUC(0-t) = 151 ± 21.5 h·mg/100 mL
Compound = C[C@H]1CN(C(=O)CC#N)[C@]12CCN(c1ncnc3[nH]ccc13)C2; test system = healthy human, plasma; setting = oral, 6 mg single, geometric mean; AUC(0-t) = 193 ng·h/mL
Compound = CO[C@]1(C(=O)N[C@@H](C)c2ccc(-n3cc(F)cn3)nc2)CC[C@H](c2nc(C)cc(Nc3cc(C)[nH]n3)n2)CC1; test system = human, plasma; setting = oral, 200 mg, geometric mean; AUC(0-t) = 11400 ng·h/mL
Compound = N#Cc1ccc([C@H]2CCc3cncn32)c(F)c1; test system = human, both sexes, plasma; setting = oral, 50 mg; AUC(0-t) = 3330 ng·h/mL
Compound = CN[C@@H](C)C(=O)N[C@H]1CN(S(=O)(=O)c2cccc(S(=O)(=O)N3CC[C@H]4CC[C@@H](C(=O)NC(c5ccccc5)c5ccccc5)N4C(=O)[C@@H](NC(=O)[C@H](C)NC)C3)c2)CC[C@H]2CC[C@@H](C(=O)NC(c3ccccc3)c3ccccc3)N2C1=O; assay = LC-MS/MS; test system = human, advanced solid tumours, plasma; setting = intravenous, 12 mg weekly, day 1; AUC(0-t) = 207 ± 20.4 ng·h/mL
Compound = NC1(C(=O)N[C@@H](CCO)c2ccc(Cl)cc2)CCN(c2nc[nH]c3nccc2-3)CC1; test system = human, plasma; setting = dose not given, added: enzalutamide; AUC(0-t) = 1160 ng·h/mL and 1100 ng·h/mL and 1840 ng·h/mL
Compound = [H]/N=C(/N)c1ccc(NCc2nc3cc(C(=O)N(CCC(=O)O)c4ccccn4)ccc3n2C)cc1; test system = healthy human subjects, plasma; setting = oral, 150 mg, dabigatran etexilate, geometric mean, added: fruquintinib 5 mg; AUC(0-t) = 876 ng·h/mL
Compound = COc1nnc2ccc(N3CCC(c4ccc(OCCN5CCN(C)C(=O)[C@H]5C)cc4)CC3)nn12; test system = human, plasma; setting = oral, 2 mg once daily, multiple dose, monotherapy; AUC(0-t) = 0.0743 µM·h
Compound = CC(C)c1nc(N(C)S(C)(=O)=O)nc(-c2ccc(F)cc2)c1/C=C/[C@@H](O)C[C@@H](O)CC(=O)O; test system = human, plasma; setting = oral, 20 mg, day 2, mean, alone; AUC(0-t) = 54.6 ng·h/mL
Compound = C[C@H]1[C@@H](O)O[C@@H]2O[C@@]3(C)CC[C@H]4[C@H](C)CC[C@@H]1[C@@]24OO3; test system = human, both sexes, plasma; setting = oral, dose not given, fixed-dose combination; AUC(0-t) = 1310 ng·h/mL
Compound = NC[C@@]1(CC(=O)O)[C@@H]2CC[C@H]3C[C@@H]2[C@@H]1C3; test system = human, severely renal impairment, plasma; setting = dose not given, geometric least squares mean; AUC(0-t) = 6500 ng·h/mL
Compound = COc1cc(-c2cnc3cc(OCCN4CCOCC4)ccn23)cc2c1C(=O)N(CC(F)(F)F)CC2; assay = LC-MS; test system = human, plasma; setting = oral, 350 mg, day 5, added: sulfasalazine 1000 mg; AUC(0-t) = 4800 ng·h/mL
Compound = CCNCc1cc(Nc2ccnc3cc(Cl)ccc23)ccc1O; test system = human, both sexes, plasma; setting = oral, dose not given, fixed-dose combination; AUC(0-t) = 27000 ng·h/mL
Compound = C#C[C@]1(CO)O[C@@H](n2cnc3c(N)nc(F)nc32)C[C@@H]1O; test system = human, plasma; setting = oral, 30 mg, single dose, geometric mean; AUC(0-t) = 3.4 µM·h
Compound = Cc1cc(-c2nnc(N)nc2-c2ccc(F)cc2)cc(Cl)n1; test system = human patients, plasma; setting = oral, 75 mg nanosuspension once daily, multiple doses, arithmetic mean; AUC(0-t) = 1990 ng·h/mL
Compound = CO[C@@H]1[C@H](OC(=O)N2CC(CCN3CCOCC3)C2)CC[C@]2(CO2)[C@H]1[C@@]1(C)O[C@@H]1CC=C(C)C; test system = humans, plasma; setting = subcutaneous, 0.6 mg twice weekly, fifth dose; AUC(0-t) = 2.35 ± 0.8 ng·h/mL
Compound = Cl.[2H]C([2H])([2H])CC(=O)c1cnc(NC(=O)C2CC2)cc1Nc1cccc(-c2ncn(C([2H])([2H])[2H])n2)c1OC; test system = human, fasted, plasma; setting = oral, 25 mg, single dose, liquid formulation; AUC(0-t) = 1830 ng·h/mL
Compound = [H]/N=C(/N)c1ccc(NCc2nc3cc(C(=O)N(CCC(=O)O)c4ccccn4)ccc3n2C)cc1; test system = healthy humans, plasma; setting = oral, 75 mg, alone, geometric mean; AUC(0-t) = 431 ng·h/mL
Compound = Cn1cncc1[C@@](N)(c1ccc(Cl)cc1)c1ccc2c(c1)c(-c1cccc(Cl)c1)cc(=O)n2C; test system = human patients; setting = oral, 300 mg/m2, first dose, cycle 1, initial cohort, median; AUC(0-t) = 17100 ng·h/mL
Compound = Cc1[nH]c(/C=C2\C(=O)Nc3ccc(F)cc32)c(C)c1C(=O)N[C@H]1CCN(C(=O)N(C)C)C1; test system = human patients, plasma; setting = oral, 200 mg single dose, added: everolimus 5 mg; AUC(0-t) = 10600 ± 7570 ng·h/mL
Compound = CCCn1cc(C)c2c(=O)[nH]c(-c3cc(S(=O)(=O)N4CCN(CC)CC4)ccc3OCC)nc21; test system = human, plasma; setting = oral, 100 mg; AUC(0-t) = 202 ± 117 ng·h/mL
Compound = FC(F)(F)c1ccc(CNc2ccc(Cc3c[nH]c4ncc(Cl)cc34)cn2)cn1; assay = measured: total radioactivity; test system = healthy human male, whole blood; setting = oral, 400 mg [14C]-labelled; AUC(0-t) = 83400 ng·h/mL
Compound = Cc1cc(C)c(CNC(=O)c2cc(Cl)c3c(c2C)O[C@@](C)([C@H]2CC[C@H](N(C)C)CC2)O3)c(=O)[nH]1; assay = mean; test system = healthy male humans, plasma; setting = oral, 25 mg, day 1, alone, itraconazole group; AUC(0-t) = 768 ng·h/mL
Compound = CC(C)c1nc(N(C)S(C)(=O)=O)nc(-c2ccc(F)cc2)c1/C=C/[C@@H](O)C[C@@H](O)CC(=O)O; test system = healthy human subjects, plasma; setting = oral, 10 mg, geometric mean, added: fruquintinib 5 mg; AUC(0-t) = 28.6 ng·h/mL
Compound = CN(CC#N)C(=O)C[C@H](Nc1nc2ccccc2[nH]1)c1cccc(C(F)(F)F)c1; test system = human; setting = intravenous infusion, 3 mg/kg, 1 mg/mL formulation; AUC(0-t) = 23800 ± 5220 ng·h/mL
Compound = CO[C@H]1CC[C@H](N2C(=O)CNc3ncc(-c4ccc(C(C)(C)O)nc4)nc32)CC1; test system = human, plasma; setting = oral, 30 mg, day -1, geometric mean; AUC(0-t) = 1200 ng·h/mL
Compound = CNC(=O)n1ccc2cc(Oc3ccnc(NC(=O)c4ccc(C5CCN(CCO)CC5)cc4)c3)c(OCCOC)cc21; test system = healthy human, plasma; setting = oral, 35 mg, geometric mean, added: rabeprazole 20 mg; AUC(0-t) = 115 ng·h/mL
Compound = CC[C@H](C)[C@@H]([C@@H](CC(=O)N1CCC[C@H]1[C@H](OC)[C@@H](C)C(=O)N[C@@H](Cc1ccccc1)C(=O)NCCCO)OC)N(C)C(=O)[C@@H](NC(=O)[C@H](C(C)C)N(C)C)C(C)C; test system = human patients, plasma; setting = intravenous, 30 mg/m², cycle 1 geometric mean; AUC(0-t) = 1580 ng·h/mL
Compound = CC(C)NC(=O)COc1cccc(-c2nc(Nc3ccc4[nH]ncc4c3)c3ccccc3n2)c1; test system = human, male, fed, plasma; setting = oral, 200 mg, day 3, adjusted geometric mean; AUC(0-t) = 9200 ng·h/mL

For quick reference, copied from above:
Compound = CO[C@]1(C(=O)N[C@@H](C)c2ccc(-n3cc(F)cn3)nc2)CC[C@H](c2nc(C)cc(Nc3cc(C)[nH]n3)n2)CC1; test system = human, plasma; setting = oral, 200 mg, geometric mean; AUC(0-t) = 11400 ng·h/mL
Compound = N#Cc1ccc([C@H]2CCc3cncn32)c(F)c1; test system = human, both sexes, plasma; setting = oral, 50 mg; AUC(0-t) = 3330 ng·h/mL
Compound = CN[C@@H](C)C(=O)N[C@H]1CN(S(=O)(=O)c2cccc(S(=O)(=O)N3CC[C@H]4CC[C@@H](C(=O)NC(c5ccccc5)c5ccccc5)N4C(=O)[C@@H](NC(=O)[C@H](C)NC)C3)c2)CC[C@H]2CC[C@@H](C(=O)NC(c3ccccc3)c3ccccc3)N2C1=O; assay = LC-MS/MS; test system = human, advanced solid tumours, plasma; setting = intravenous, 12 mg weekly, day 1; AUC(0-t) = 207 ± 20.4 ng·h/mL
Compound = NC1(C(=O)N[C@@H](CCO)c2ccc(Cl)cc2)CCN(c2nc[nH]c3nccc2-3)CC1; test system = human, plasma; setting = dose not given, added: enzalutamide; AUC(0-t) = 1160 ng·h/mL and 1100 ng·h/mL and 1840 ng·h/mL
